Published values from different studies.
Each numbered part is a random draw from the data of one study; scales do not carry over between parts.

Sample 1 — technique: protein binding microarray; molecule type: double-stranded DNA, one strand shown; sample: in vitro; concentration: not given; reference: not given; direction: higher = stronger binding
Target: Histone acetyltransferase KAT6A, winged helix 1, GST fusion (KAT6A, Homo sapiens, UniProt Q92794, residues 1-85)
Notes: 8-mer, flanks averaged, mean of 2 arrays, mostly near background
Target sequence (chain): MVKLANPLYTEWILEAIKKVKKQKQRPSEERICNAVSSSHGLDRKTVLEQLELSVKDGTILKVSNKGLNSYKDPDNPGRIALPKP
| Strand | E-score |
| --- | --- |
| GATCACGC | 0.111 |
| CAAAAGAA | -0.116 |
| GCTCAAAC | -0.0266 |
| AGCATAAT | -0.0939 |
| AGATTAAG | -0.174 |
| ATCACGGC | 0.37 |

Sample 2 — technique: protein-binding microarray; molecule type: double-stranded DNA, one strand shown; sample: in vitro; concentration: 250 nM; notes: 60-bp whole probe; added: salmon DNA 0.4 mg/ml; reference: random background probes; direction: higher = stronger binding; all sequences stand within: GCCTAGCAC … GTCTTGATTCGCTTGACGCTGCTG
Target: Interferon regulatory factor 7, full length, phosphomimetic (IRF7, Homo sapiens, UniProt Q92985, residues 1-503, S101K/S471D/S472D/S475D/S476D/S477D/S483D/S484D/S487D)
Residues (chain): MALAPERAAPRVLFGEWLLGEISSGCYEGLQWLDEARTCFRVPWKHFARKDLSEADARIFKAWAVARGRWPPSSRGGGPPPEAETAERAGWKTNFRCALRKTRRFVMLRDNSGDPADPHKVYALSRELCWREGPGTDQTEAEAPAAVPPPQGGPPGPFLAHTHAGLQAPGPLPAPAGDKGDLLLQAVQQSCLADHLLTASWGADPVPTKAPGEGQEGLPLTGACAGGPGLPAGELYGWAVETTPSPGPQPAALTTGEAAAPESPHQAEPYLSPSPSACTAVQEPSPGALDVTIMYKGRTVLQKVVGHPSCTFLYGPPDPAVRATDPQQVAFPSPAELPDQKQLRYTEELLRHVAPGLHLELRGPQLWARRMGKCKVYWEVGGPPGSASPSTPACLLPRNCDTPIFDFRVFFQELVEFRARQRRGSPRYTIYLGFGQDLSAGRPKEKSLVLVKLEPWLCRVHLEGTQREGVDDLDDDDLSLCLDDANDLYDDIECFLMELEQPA
| Strand | log fluorescence [z-score] |
| --- | --- |
| TTAGATTTTAGTCTCGATTAGTGCTAG | 2.48 |
| TTAGGTATCGGTATCGGCTAGTGCTAG | 1.57 |
| GACGGACTAGACTTTCGGGACGTGCTA | -0.129 |
| TTTGAACTGAGTCTCGATTAGTGCTAG | 1.03 |
| ATACCTTAGGTTTTCTGGTTGTGCTAG | 0.777 |
| TTAGGTATCGACTTTCAGTTAGTGCTA | 1.57 |
| TTAGGTATAGGGTATCGGTTAGTGCTA | 0.293 |
| TTAGAACCGAGTCTCGATTAGTGCTAG | 2.12 |

Sample 3 — technique: aptamer microarray, sandwich; molecule type: DNA with 2'F-ANA; sample: in vitro; concentration: 200 nM; added: Cy3 exosite-II aptamer, 400 nM; direction: higher = stronger binding; strand: GGTTGGTGTGGTTGG
Target: Prothrombin, mature alpha-thrombin (F2, Homo sapiens, UniProt P00734)
Notes: whole 15-mer aptamer, many near background
| Modification | mean fluorescence intensity [a.u.] |
| --- | --- |
| 2'F-ANA at 3 4 9 10 11 15 | 558 |
| 2'F-ANA at 5 6 8 11 14 | 55.8 |
| 2'F-ANA at 2 5 6 7 8 10 11 | 48.1 |
| 2'F-ANA at 3 4 8 10 11 15 | 251 |
| 2'F-ANA at 1 2 3 4 7 8 10 11 13 15 | 59.5 |
| 2'F-ANA at 3 4 5 9 12 13 | 107 |

Sample 4 — technique: Sort-seq; item: YFP reporter; sample: E. coli; notes: PhoQ-PhoP variant library; added: 10 µM Mg2+; reference: high Mg2+ state; direction: higher = stronger signaling
Molecule: PhoQ, residues 284 288 289 292 302 303 WVSSAF
| target | fold induction |
| --- | --- |
| PhoP, residues 12 14 15 18 19 VHTVL (Escherichia coli, UniProt P23836) | 10.5 |
| PhoP, residues 12 14 15 18 19 ICWRQ (Escherichia coli, UniProt P23836) | 2.21 |
| PhoP, residues 12 14 15 18 19 TQCLL (Escherichia coli, UniProt P23836) | 1.33 |

Repeated from above (sample 1):
| Strand | E-score |
| --- | --- |
| GCTCAAAC | -0.0266 |
